Results gathered from unrelated publications.
Each line is one published result; not all experiments were run side by side. Numbers after ± are the reported error.
rep main protease: Replicase polyprotein 1ab, main protease (rep, Severe acute respiratory syndrome coronavirus 2, UniProt P0DTD1)

| Structure (SMILES) | target | effect on | action | technique | time | added | IC50 |
| --- | --- | --- | --- | --- | --- | --- | --- |
| N#Cc1ccc(N2N=C(c3ccc(C(=O)O)cc3)CC2C2CCCC2)cc1Cl (stereo not shown) | Replicase polyprotein 1ab, methyltransferase (rep, Severe acute respiratory syndrome coronavirus 2, UniProt P0DTD1) | enzyme activity | inhibitor | – | – | – | 6.31 µM |
| Nc1nnc(SC2CC(=O)N(c3cccc4ccccc34)C2=O)s1 (stereo not shown) | rep main protease | enzyme activity | inhibitor | – | 20 min preincubation | – | 0.84 ± 0.07 µM |
| CC(C)(C)c1ccc(N(C(=O)C(F)Cl)C(C(=O)Nc2ccc3ccncc3c2)c2cccnc2)cc1 (single isomer, unassigned) | rep main protease | enzyme activity | inhibitor | – | – | – | 1.43 µM |
| O=C(/C=C/c1ccc(O)cc1)OC[C@H]1O[C@@H](Oc2cc(O)c3c(=O)cc(-c4ccc(O)cc4)oc3c2)[C@H](O)[C@@H](O)[C@@H]1O | rep main protease | enzyme activity | inhibitor | – | – | fluorogenic substrate | 225 ± 9.55 µM |
| CC[C@@H](C)[C@@H](C(=O)OC)n1[se]c2ccccc2c1=O | rep main protease | enzyme activity | inhibitor | – | – | – | 0.0876 µM |
| C=C1CCC2C(C)(CO)C(O)CCC2(C)C1CC(SC(=S)N1CCN(Cc2cc(F)c(F)cc2F)CC1)C1=CCOC1=O (stereo not shown) | rep main protease | enzyme activity | inhibitor | fluorescence | – | – | 72 µM |
| CC1(C)C=Cc2c(ccc(C3COc4cc(O)cc(O)c4C3=O)c2O)O1 (stereo not shown) | rep main protease | enzyme activity | inhibitor | – | – | – | 1.52 µM |
| CCC(C(=O)Nc1ccc(C)cc1)n1c(SCc2ccc(F)cc2)nc2ncccc21 (stereo not shown) | Replicase polyprotein 1ab, papain-like protease (rep, Severe acute respiratory syndrome coronavirus 2, UniProt P0DTD1) | enzyme activity | inhibitor | – | – | – | > 20 µM |
| CNC(=O)C[C@H](Cc1ccncc1)NC(=O)[C@@H](Cc1cccc(Br)c1)NC(=O)[C@@H](N)Cc1cccc(F)c1 | rep main protease | enzyme activity | inhibitor | fluorescence | – | – | 6 µM |
| O=C1CC(c2ccccc2)Oc2ccccc21 (stereo not shown) | Replicase polyprotein 1ab, nsp13 helicase (rep, Severe acute respiratory syndrome coronavirus 2, UniProt P0DTD1) | helicase unwinding | – | – | – | 1 mM DTT | 5.2 ± 1.5 µM |
| CC1CCc2c(sc3ncnc(Sc4nnc(CN5CCCC5)o4)c23)C1 (stereo not shown) | rep main protease | enzyme activity | inhibitor | – | – | – | 14.8 µM |
| O=C(c1cncc(Br)c1)N1CCN(C(c2ccccc2)c2ccccc2)CC1 | rep main protease | enzyme activity | inhibitor | – | – | – | 0.22 µM |
| Cc1ccc(NC(=S)N/N=C/c2ccccc2O)cc1 | rep main protease | enzyme activity | inhibitor | FRET | – | – | 3.61 µM |
| CC1=C(c2ccccc2)C1C(=O)NCc1nc(-c2ccc(OC(F)(F)F)cc2)no1 (stereo not shown) | rep main protease | enzyme activity | inhibitor | FRET | – | – | 19.6 µM |
| CN(C)CCCCNC(=O)C[C@H](Cc1ccc(F)cc1)NC(=O)[C@@H](Cc1ccc(Cl)cc1Cl)NC(=O)[C@H](N)Cc1ccccc1C#N | rep main protease | enzyme activity | inhibitor | fluorescence | – | – | 0.01 µM |
| O=C(C=Cc1ccc(O)c(O)c1)OC1CC(O)(C(=O)O)CC(OC(=O)C=Cc2ccc(O)c(O)c2)C1O (stereo not shown) | rep main protease | enzyme activity | inhibitor | FRET | – | – | 4.74 ± 0.24 µM |

Some of these lines once more:
| Structure (SMILES) | target | effect on | action | technique | time | added | IC50 |
| --- | --- | --- | --- | --- | --- | --- | --- |
| CC[C@@H](C)[C@@H](C(=O)OC)n1[se]c2ccccc2c1=O | rep main protease | enzyme activity | inhibitor | – | – | – | 0.0876 µM |
| CC(C)(C)c1ccc(N(C(=O)C(F)Cl)C(C(=O)Nc2ccc3ccncc3c2)c2cccnc2)cc1 (single isomer, unassigned) | rep main protease | enzyme activity | inhibitor | – | – | – | 1.43 µM |
